Published values pooled from the literature.
Parts stem from different laboratories: compare values within a part only. Changes are numbered by the printed parent chain.

Set 1
Target: Sal-like protein 4, full length isoform B (SALL4, Homo sapiens, UniProt Q9UJQ4-2, residues 1-616)
Technique: universal PBM
Form: double-stranded DNA, one strand shown
Matrix: in vitro
Tested at: not given
Setting: 8-mer, flanks averaged, mean of replicates
Reading: higher = stronger binding
Strand	E-score
AGGCATAG	-0.0785
AATCTAAT	0.198
CAGAATGG	-0.039
GCTCCACA	-0.291
TACGCCCA	-0.043
AAGATACG	0.139

Set 2
Target: CCND1, cyclin fold, Cln2 fusion (human)
Technique: yeast growth competition, sequencing
Matrix: yeast
Setting: weak parent motif
Relative to: not given
Reading: higher = stronger binding
Parent: GMNC docking peptide (human); KNAKRNLSSEFAN
Change	normalised enrichment score
KNAKRYLSSEFAN [N6Y]	-0.403
KNAKRNLNSEFAN [S8N]	0.838
KNAKVNLSSEFAN [R5V]	-0.0403
KNAKRNLSSELAN [F11L]	0.558
KNAKRNLSSEFHN [A12H]	0.373
KLAKRNLSSEFAN [N2L]	0.217

Set 3
Target: Histone acetyltransferase KAT6A, winged helix 2, GST fusion (KAT6A, Homo sapiens, UniProt Q92794, residues 85-181)
Technique: protein binding microarray
Form: double-stranded DNA, one strand shown
Matrix: in vitro
Tested at: not given
Setting: 8-mer, flanks averaged, mean of 2 arrays, mostly near background
Relative to: not given
Reading: higher = stronger binding
Residues (chain): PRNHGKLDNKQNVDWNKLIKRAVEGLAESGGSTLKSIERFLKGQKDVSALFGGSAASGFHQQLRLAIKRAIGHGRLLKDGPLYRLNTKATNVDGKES
Strand	E-score
CACAAGCC	0.0185
CTACATAC	-0.184
CGCGCAGC	0.24
AAGGTGCA	-0.0771
GGGAAGGA	-0.0214
CCTCTATC	-0.0568
GGCCTTGA	0.109

Other studies, line by line
Molecule	target	assay	system	setting	scale	quantity	value
PhoQ, residues 284 288 289 292 302 303 TTSMTC	PhoP, residues 12 14 15 18 19 LWHVM (Escherichia coli, UniProt P23836)	Sort-seq, measured: YFP reporter	E. coli	PhoQ-PhoP variant library, added: 10 µM Mg2+	relative to: high Mg2+ state, higher = stronger signaling	fold induction	3.75

Some of these lines once more (set 3):
Strand	E-score
GGCCTTGA	0.109
CGCGCAGC	0.24
CTACATAC	-0.184
